Assay results from different studies.
± marks the error that the study gave.
U2AF2: U2AF2 148-342 (Homo sapiens, UniProt P26368)
Sequence of UniProt P26368 (whole entry, looked up): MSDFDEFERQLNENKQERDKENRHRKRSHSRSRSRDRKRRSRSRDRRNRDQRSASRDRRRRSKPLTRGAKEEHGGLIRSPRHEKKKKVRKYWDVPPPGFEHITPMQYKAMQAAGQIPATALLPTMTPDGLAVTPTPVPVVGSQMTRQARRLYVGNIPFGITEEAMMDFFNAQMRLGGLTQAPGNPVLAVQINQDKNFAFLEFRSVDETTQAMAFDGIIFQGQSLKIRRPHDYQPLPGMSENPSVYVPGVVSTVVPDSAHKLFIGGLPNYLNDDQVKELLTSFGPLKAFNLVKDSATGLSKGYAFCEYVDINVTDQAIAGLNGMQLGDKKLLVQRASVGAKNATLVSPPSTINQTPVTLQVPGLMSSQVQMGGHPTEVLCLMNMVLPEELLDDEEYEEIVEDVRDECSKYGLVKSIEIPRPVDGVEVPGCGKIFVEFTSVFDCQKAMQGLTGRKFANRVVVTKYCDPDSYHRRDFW

| Molecule | tested on | test | system | setting | how to read | measurement | value |
| --- | --- | --- | --- | --- | --- | --- | --- |
| coproporphyrin I |  |  | human, plasma | dose not given, baseline period |  | diurnal variation (Cmax-Cmean)/Cmean | 37.1 ± 13.9% |
| human major vault protein | CYB5R4 knockout human cells | PP4 interaction, 3xFLAG-PP4C IP-MS |  | concentration not given | reference: CYB5R4 KO over parental | log2 fold change | 2.31 |
| Teicoplanin |  | refers to: stability | human serum | 6 days, low QC, autosampler |  | recovery | 99.3% |
| coproporphyrin III |  |  | human, serum | oral, 20 mg ezetimibe, 1.33 h, geometric mean ezetimibe alone | reference: at 1.33 h over pre-dose | concentration ratio | 2.65 |
| [177Lu]Lu-DOTA-TATE |  | radio-HPLC | mouse serum | 2 h, 37 °C, 50 MBq/nmol |  | intact radiolabelled peptide | 98.4 ± 0.5% |
| CUCUUAACA (ssRNA) | U2AF2 | sequencing of bound RNA | RNA | motif only |  | Kd | 4.37 µM |
| caspofungin |  |  | adult ICU patients, mITT, serum | dose not given, day 30 |  | alkaline phosphatase | 202 U/L |
| Polymyxin B |  | untargeted LC-MS metabolomics, refers to: orthophosphate | Sprague-Dawley rat, right cerebral cortex | intracerebroventricular, 0.75 mg/kg, 1 h | reference: NaCl control | log2 fold change | -5.9 |
| CTOP |  | RP-HPLC | HALO Peptide ES-C18 column | 25 µM, acetic acid/acetonitrile, 10 min gradient |  | retention time | 5.17 min |
| regorafenib N-β-glucuronide |  |  | mouse plasma | 750 ng/mL, 8 h, room temperature |  | short-term stability accuracy | 98% |
| UAUUUGUGA (ssRNA) | U2AF2 | sequencing of bound RNA | RNA | motif only |  | Kd | 3.83 µM |
| FNA / CGLSGLGVA-NH2 ([18F]FNA-labelled, C-amide) |  | ex vivo gamma counting | peptide, healthy mouse, lung | 60 min post injection |  | tissue uptake | 0.38 %ID/g |

Some of these lines once more:
| Molecule | tested on | test | system | setting | how to read | measurement | value |
| --- | --- | --- | --- | --- | --- | --- | --- |
| CTOP |  | RP-HPLC | HALO Peptide ES-C18 column | 25 µM, acetic acid/acetonitrile, 10 min gradient |  | retention time | 5.17 min |
| regorafenib N-β-glucuronide |  |  | mouse plasma | 750 ng/mL, 8 h, room temperature |  | short-term stability accuracy | 98% |
